Published values from different studies.
Parts stem from different laboratories: compare values within a part only.

Series 1
Target: Sal-like protein 4, full length isoform A (SALL4, Homo sapiens, UniProt Q9UJQ4, residues 1-1053)
Chain of UniProt Q9UJQ4 (whole entry, looked up): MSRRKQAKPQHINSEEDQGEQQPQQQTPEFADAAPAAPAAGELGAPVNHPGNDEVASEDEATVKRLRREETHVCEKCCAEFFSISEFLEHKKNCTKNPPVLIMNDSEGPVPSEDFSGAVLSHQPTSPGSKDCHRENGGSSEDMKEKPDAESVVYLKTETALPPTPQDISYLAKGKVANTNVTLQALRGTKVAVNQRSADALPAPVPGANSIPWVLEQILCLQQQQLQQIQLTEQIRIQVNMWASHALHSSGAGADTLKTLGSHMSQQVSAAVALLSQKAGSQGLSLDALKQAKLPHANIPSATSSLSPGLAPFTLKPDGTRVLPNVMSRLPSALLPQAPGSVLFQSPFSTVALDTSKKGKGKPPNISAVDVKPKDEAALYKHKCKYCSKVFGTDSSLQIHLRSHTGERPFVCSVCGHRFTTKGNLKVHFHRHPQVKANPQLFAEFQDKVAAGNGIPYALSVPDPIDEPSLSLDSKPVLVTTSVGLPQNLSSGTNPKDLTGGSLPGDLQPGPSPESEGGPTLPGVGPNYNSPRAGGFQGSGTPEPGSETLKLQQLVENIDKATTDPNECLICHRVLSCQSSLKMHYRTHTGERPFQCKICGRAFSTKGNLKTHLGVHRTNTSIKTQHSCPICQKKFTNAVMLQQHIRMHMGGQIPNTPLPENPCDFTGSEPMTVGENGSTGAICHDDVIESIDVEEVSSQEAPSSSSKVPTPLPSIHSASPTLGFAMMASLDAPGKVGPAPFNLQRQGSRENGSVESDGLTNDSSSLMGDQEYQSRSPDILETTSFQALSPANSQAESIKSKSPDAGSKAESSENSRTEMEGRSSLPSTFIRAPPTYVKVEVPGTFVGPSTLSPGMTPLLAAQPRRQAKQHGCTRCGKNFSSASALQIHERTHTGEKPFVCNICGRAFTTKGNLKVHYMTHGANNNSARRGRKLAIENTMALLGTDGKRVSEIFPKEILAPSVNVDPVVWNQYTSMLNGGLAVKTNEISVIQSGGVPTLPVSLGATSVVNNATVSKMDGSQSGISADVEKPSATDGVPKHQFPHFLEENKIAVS
Method: universal PBM
Form: double-stranded DNA, one strand shown
Matrix: in vitro
Tested at: 600 nM
Notes: 8-mer, flanks averaged, mean of replicates
Direction: higher = stronger binding
Endpoint: E-score
ACAAGAAT: 0.216
ATCACGCC: -0.134
CTCTCCGC: -0.0954
CGCTCGAC: -0.333
AAGCGCCT: -0.0987
ACTTTTGG: 0.0465
CGGCTAGA: -0.186
GGTTTGCA: -0.132
CTTCTCGA: -0.0432
ATGTAACA: 0.282
TACGTTGA: 0.192
ACTGCCGA: -0.178
GTTGCACA: -0.0712
ATGCATGC: 0.0185
GTTTAACA: 0.18
ATCGTGCC: -0.136
CCAGGAAG: -0.202
AGCTAAAG: 0.121
AAACAGTA: 0.283
AGGTACCT: -0.298
TAAGGACA: 0.0428
AAAGGCTC: -0.0329
CGTTCGCA: 0.00975
CAGCTCCA: -0.243
CAGATTCA: 0.0971

Series 2
Target: RNA binding protein fox-1 homolog 2, RRM domain, GST-SBP tag (RBFOX2, Homo sapiens, UniProt O43251-10, residues 100-194)
Method: RNA Bind-n-Seq
Form: RNA
Matrix: in vitro
Tested at: 365 nM
Notes: natural RNA segment, single round, ends assumed
Relative to: no-protein control
Direction: higher = stronger binding
Endpoint: RBNS enrichment (R)
All sequences stand within: GGGAGUUCUACAGUCCGACGAUC … UGGAAUUCUCGGGUGCCAA
Construct (chain): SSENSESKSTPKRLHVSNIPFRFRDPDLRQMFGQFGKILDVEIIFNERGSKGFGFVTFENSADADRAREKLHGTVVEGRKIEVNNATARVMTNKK
CUCCAGACGGCCUGCCAUCCAGCCCUCUGGCCUGAGGAAGACCCCCAUAGGCUCCGGACAGGCAGGUCCUUUCUAUCCCAUGCCACCACUUCCUUCCCCCUUUAACUGAG: 0.502
AUUCUUGAGCUGAAAAUAAAUAAACCAGGAUGGCAGGGACCAACCCCUAAUCCCUCCCCAGCGGCAAGCCCCUCUUUUCAGAGUGGGCAGAGGGUUGCCUAUGGUGGGCA: 0.447
UGAGGAAUCGGCGGAUUGUCUGAAUGACACAUAUACAGAGCCCCCACGGAUUUCUGCACACUCUGGGUCUGUGCUGGUGGAACAUUGCCAAUCAGUUCUUAAUGAGGCAC: 1.41
CUCUAGUUCUUUGUUCAUAGCCCAGUAGACCUUGUUACUUCUGAGGUAAGUUAAGUAAGUUGAUUCGGUAUCCCCCCAUCUUGCUUCCCUAAUCUAUGGUCGGGAGACAG: 0.333
AGGCUUUCCAACGUUAUCCCUGUAGAGAUCAUCUUUACAGUUCCUCGGGAAAAUGUGAAUGUGCCGCGUUUUGUUUUCAAUAUUGUAUGAAAACAGGAAAAAAAUAAAAC: 0.568
GUUGCCACCAACCACCACCACAGGUGGCCUUAUGGCUCUUCCUGGAUGUUCGAUUCAUGUAAGUGACCUACCUGCUGAUGAUCCACAAAUAAUACUUUAGGGUGGCACUG: 0.284
CAGUGGAUCCAUGACUUACGUGUCACAGAAGAAUGACUGUUGCCGAAGGAAGCUUAAAAAUUCUAUAUCCAGAUAAAAGACCACAAUAAAGCAAAAGUCACCUAUACCGU: 0.27
ACUGUAGCACAUCUCUGGGCGUUUCCCUACCCAGAGAAGAGCCCCCCCCUUUGAUACAAAUCGGUUGGAUUUUCAUAUGCUUCAAAGGCUUGAUCUGUGAGUCACUCUCC: 0.527
AGAUCUAUCCGAGUGCUUCCUUCAACUGACCAUAUGCUUCUUCCUCGUGUCUGCCUGCGGGCUCCUGAGGGUCCACAGCUGAGCUGAUCCAUCUUUCCCUCAAGUGACCG: 1.35
AAAAUCGUGGAUGAAUAGUUACUCUGGACAGGACUUUUGACAUGUCUUGCUCUGUGGAAUUUUGUGCUUACUACUGUAUAGUGCAUGUGGCUUAGGUUACCCUAGCUGGU: 2.03
CCACCUCUAGAUACCUUCAGGCAACACAGCCCAGUUUUAACCUCUAGUAUCCAUGACCAAACUAUCCCUGACACAUGAGGACAGGGGCCUCUUCUGGCUGUCAGGAGCAA: 0.668
CCUAAAAGCAGAUGUUUUGCCAAAUCUCCAAACUAGAGGACAAAGACAAGGGGACAAUGACCAUCAAUUCAUCUAAUCAGGAAUUGUGAUGGCUUCCUAAGGAAUCUCUG: 0.434

Series 3
Target: Interferon regulatory factor 3, full length, phosphomimetic (IRF3, Homo sapiens, UniProt Q14653, residues 1-427, S386D/S396D/S398D/S402D/T404D/S405D)
Chain of UniProt Q14653 (whole entry, unmodified, looked up): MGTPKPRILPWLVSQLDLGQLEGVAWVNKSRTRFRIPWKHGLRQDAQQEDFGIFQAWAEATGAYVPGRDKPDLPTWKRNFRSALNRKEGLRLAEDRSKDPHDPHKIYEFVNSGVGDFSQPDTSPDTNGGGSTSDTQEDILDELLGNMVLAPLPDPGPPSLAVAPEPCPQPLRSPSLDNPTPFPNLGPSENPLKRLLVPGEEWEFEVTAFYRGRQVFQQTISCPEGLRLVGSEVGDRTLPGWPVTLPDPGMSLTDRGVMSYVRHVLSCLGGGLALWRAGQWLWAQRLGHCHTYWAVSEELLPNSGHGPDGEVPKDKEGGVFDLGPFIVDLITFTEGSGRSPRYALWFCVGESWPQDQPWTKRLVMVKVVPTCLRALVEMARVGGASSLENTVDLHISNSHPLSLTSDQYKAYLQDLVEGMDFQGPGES
Method: protein-binding microarray
Form: double-stranded DNA, one strand shown
Matrix: in vitro
Tested at: 2540 nM top
Notes: 60-bp whole probe
Added: salmon DNA 0.4 mg/ml
Relative to: random background probes
Direction: higher = stronger binding
Endpoint: fitted relative affinity
All sequences stand within: GCCTAGCAC … GTCTTGATTCGCTTGACGCTGCTG
ACCATTTTGGTTTTCCTTATGTGCTAG: 4.14 z-score
TCACATTGCCTGTTTTTCACTGTGCTA: 0.489 z-score
AGATGTATGAGCCTCTGTTTGTGCTAG: -0.454 z-score
TCAAATATCTTTGTTGAACTGTGCTAG: 0.0884 z-score
AAAACTAGGGCATTTAGAAAAGTGCTA: -0.106 z-score
TCACTTCTCGAGTGCCGGACTGTGCTA: 1.33 z-score
CTAGGTTTCGGGTATCGGTTAGTGCTA: 4.43 z-score
TTAGGATTGGGTCTCGGTTAGTGCTAG: -0.127 z-score
GAAGGACTGGGACTGGGGACGTGCTAG: -1.02 z-score
TTAGGTTTCCATCTCCTTTAGTGCTAG: 8.9 z-score
GTGACTCAGCACTTTGGCATGGTGCTA: -0.564 z-score
TTAGGACTGAGTCTCGGTTAGTGCTAG: -0.405 z-score
GACGAACTGAGACTGGAGTCGTGCTAG: -0.166 z-score
GACGCACTGCTTTTCCTGACGTGCTAG: -0.148 z-score
GACAGACTGCTACTGCTGACGTGCTAG: -0.491 z-score
GGAAGCAGTGAGAAGGTGGCGTGCTAG: -0.883 z-score
TTAGGATTCCTTTCCCTTTAGTGCTAG: 6.63 z-score
GATGGTTTCGGGTATCGGGACGTGCTA: 4.19 z-score
GACGGACTGGGTTTCGCGACGTGCTAG: -0.124 z-score
TCATGCTTCTGTATTCAACTGTGCTAG: -0.0482 z-score
GACGGCATCGGACTGGGGACGTGCTAG: -0.993 z-score

Series 4
Target: Histone acetyltransferase KAT6A, winged helix 1, GST fusion (KAT6A, Homo sapiens, UniProt Q92794, residues 1-85)
Method: protein binding microarray
Form: double-stranded DNA, one strand shown
Matrix: in vitro
Tested at: not given
Notes: 8-mer, flanks averaged, mean of 2 arrays, mostly near background
Relative to: not given
Direction: higher = stronger binding
Endpoint: E-score
Construct (chain): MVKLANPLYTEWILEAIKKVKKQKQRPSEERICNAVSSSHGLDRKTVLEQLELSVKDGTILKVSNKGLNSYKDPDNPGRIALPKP
GGAAATCA: -0.136
AGCGGTGC: 0.102
CAGGGCGA: 0.0517
AACTAAGT: -0.0789
CCGGCCGA: 0.4
CGGCATAG: 0.288
GCCTCGTA: -0.0132
AAACCCTC: -0.0712
CCACACGG: 0.214
AAGGCACC: -0.0163
AGGTTTCG: 0.00217
AACACAAT: -0.291
ACTGCGTA: 0.159
GCATCTAA: -0.0709
ATAATTCC: -0.117
ACCCACTG: -0.0307
GTGGCCTA: -0.187

Series 5
Target: Prothrombin, mature alpha-thrombin (F2, Homo sapiens, UniProt P00734)
Method: aptamer microarray, sandwich
Form: DNA with 2'F-ANA
Matrix: in vitro
Tested at: 200 nM
Notes: whole 15-mer aptamer, many near background
Added: Cy3 exosite-II aptamer, 400 nM
Direction: higher = stronger binding
Endpoint: mean fluorescence intensity
Oligonucleotide: GGTTGGTGTGGTTGG
2'F-ANA at 4 5 6 7 8 12 13 14: 79.5 a.u.
2'F-ANA at 1 2 4 6 8 11 13 15: 83.2 a.u.
2'F-ANA at 3 5 6 7 8 9 11 14 15: 64.7 a.u.
2'F-ANA at 14: 212 a.u.
2'F-ANA at 4 6 9 11 13: 148 a.u.
2'F-ANA at 4 6 8 11 13 15: 169 a.u.
2'F-ANA at 3 4 5 7 10 12 15: 68.3 a.u.
2'F-ANA at 1 5 9 11 13: 48.3 a.u.
2'F-ANA at 1 3 6 7 10 11 12 14 15: 154 a.u.
2'F-ANA at 1 3 4 5 8 10 11: 51 a.u.
2'F-ANA at 2 3 5 6 7 8 9 10 11 14: 58.8 a.u.
2'F-ANA at 1 2 3 4 6 10 11 15: 58.2 a.u.
2'F-ANA at 1 5 7 9 10: 46.6 a.u.
2'F-ANA at 4 5 8 10 14 15: 44.4 a.u.
2'F-ANA at 1 3 6 8 9 13 15: 225 a.u.
2'F-ANA at 2 9 13 14 15: 119 a.u.
2'F-ANA at 2 3 4 5 6 7 9 11 13 14 15: 48.1 a.u.
2'F-ANA at 1 2 3 4 5 6 10 11: 66.8 a.u.

Series 6
Target: RING finger protein unkempt homolog, zinc fingers 1-6, SBP tag (UNK, Homo sapiens, UniProt Q9C0B0, residues 30-357)
Chain of UniProt Q9C0B0 (30-357, looked up): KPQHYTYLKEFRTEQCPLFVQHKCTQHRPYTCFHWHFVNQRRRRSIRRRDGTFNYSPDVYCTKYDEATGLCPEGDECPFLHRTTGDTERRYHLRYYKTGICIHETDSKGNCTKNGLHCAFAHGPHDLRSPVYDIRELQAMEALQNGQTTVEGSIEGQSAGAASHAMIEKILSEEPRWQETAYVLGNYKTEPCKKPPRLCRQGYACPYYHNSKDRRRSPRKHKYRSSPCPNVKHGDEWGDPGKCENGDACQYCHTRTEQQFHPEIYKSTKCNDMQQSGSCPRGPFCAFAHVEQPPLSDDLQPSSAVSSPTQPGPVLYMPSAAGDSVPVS
Method: RNA Bind-n-Seq
Form: RNA
Matrix: in vitro
Tested at: 100 nM
Notes: RNA with constant flanks, vertebrate orthologous sites, ends assumed
Relative to: input RNA pool
Direction: higher = stronger binding
Endpoint: bound/input enrichment
All sequences stand within: GGGAGUUCUACAGUCCGACGAUC … CAACAGAGGAUUGAGCAUCA
GUGUUGGUGCGGAGUGCUCUGUACCAGUGCUCAUCGUCCCUUCUUCAUACCAACUGUCCUAGUUAUAGGAAUAUUUUUUAAAGUUUUACAUUGCUGUAUAUUCAAAGAUUUGUUUUAUUA: 0.452 ratio
AAAGCCAUUUUUUUUCACUUUUCCUGUAAAUAAUGGAUAAUCAUUUUUUAUUUUAUCUUUAAGUGCUGUUUUAACAAUGUGGAUAGACCAUAAAUGUACUUGCUGAAUUCAUUCAUUUUU: 0.497 ratio
CCCAUGGCUGCUUUGUAUCACCUCAGUGAGUUACAGUCCCCCUUGGCAUUUAGUUGGUACUACAGCCAGUCAUCCUUAACAAAUCUUUUCACAUUUUAUUUCUUUCACACGUAGUCAUCU: 2.69 ratio
AGUAGUUUUAAGCUUGUUUGCACAGUUCUUUUGUUCCAUUGGAAAUGGAAUUCAUUGCCUUAGGUCUUUUUAAAUAGUGUAUUAUCGUUGGGGCUGGCUCUAUGCUUGAAAACCAGUUUA: 3.01 ratio
UGUGUGGUGCAGCGUGCUCUGGACCAGUGCUCACCAUCCCUUCUUCAUAUCAACUGUCCCUAGUUAUAGCAGUUUAAUAUUUUUAAAAGUUUUACAUUGCUGUAUAUUCAAAGAUUUGUU: 0.559 ratio
UCCAGUCUUACACUUAUAGUUGGCCUCAAAUCUAUUGCAUUUAUGAUAAUGUAUUAUAUCUAGUUGAGUUUAAUAUUUUUUUAUUAGCUUGUAAAUAAAGAUGGCAUCUUCUACAUUAAA: 0.803 ratio
UGUGAGGGUCUACUGACCACUCACUGUUAAAGUCUGGUAUCUGUAAACACUUUCUGUUCUUAGUCUUUUACUUGUAUAAUUGAUGUUCUUUAAAAUUGUCAAUGUAUAACAGGGCUUAUG: 1.07 ratio
AAAUUUAUUUCAUGCCCUGGACUCCCUAUCGUACUGAUACUUUAAUAGAAUAUGCAUCUUUAGAAGAUUUCCAAAACAGUCGCCAAACAACAACCUAUAAACUUCCAAAUCGAGUAGAUG: 1.55 ratio
GAUAUUGAAUAGUAUUAAACAUUUUCGUCUUCCUUUAUCUUUUAUCUCCUACCCAAUAUUUAGUCUACUUUUUAAAAUUUCAGACUUCACUGCUCUUUGAACUGAUAGUUCCAAUUUUCA: 1.13 ratio
GGAGGUGCUGGGUGACUUUGUAUGUCCGCAUUUUCGGUGUAGAGUGUUGCAGGCCUUUCAGGUUUGAUCUCAAGCUCUGUGGAAAUCAUGCUACGUCAAAUCAUCUCUCAGGCCAAGAAG: 0.236 ratio
GAUUUGGACCUUGGAGCUGAACCUGAGAGCUAGCAAAAGUGAAGCAGACUCGUAAAAUUAUAGCUGUGUGCAGCUGCACAGAACAGCUGCAUUAAAGUAUUUAUAAAGAGAAAUUUUCAG: 0.28 ratio

For quick reference, copied from above (series 5):
2'F-ANA at 1 2 4 6 8 11 13 15: 83.2 a.u.
2'F-ANA at 3 5 6 7 8 9 11 14 15: 64.7 a.u.
2'F-ANA at 14: 212 a.u.
2'F-ANA at 4 6 9 11 13: 148 a.u.
2'F-ANA at 4 6 8 11 13 15: 169 a.u.
2'F-ANA at 3 4 5 7 10 12 15: 68.3 a.u.
2'F-ANA at 1 5 9 11 13: 48.3 a.u.
2'F-ANA at 1 3 6 7 10 11 12 14 15: 154 a.u.
2'F-ANA at 1 3 4 5 8 10 11: 51 a.u.
2'F-ANA at 2 3 5 6 7 8 9 10 11 14: 58.8 a.u.
2'F-ANA at 1 2 3 4 6 10 11 15: 58.2 a.u.
2'F-ANA at 1 5 7 9 10: 46.6 a.u.
2'F-ANA at 4 5 8 10 14 15: 44.4 a.u.
2'F-ANA at 1 3 6 8 9 13 15: 225 a.u.
2'F-ANA at 2 9 13 14 15: 119 a.u.
2'F-ANA at 2 3 4 5 6 7 9 11 13 14 15: 48.1 a.u.
2'F-ANA at 1 2 3 4 5 6 10 11: 66.8 a.u.
